Measurements collected from several papers.
Values joined by “and” are separate records of one study, mostly repeats; a detail may differ. ± gives the spread as reported. Converted amounts (≈) assume the structure as drawn.

| SMILES | organism | test | system | setting | scale | endpoint | result |
| --- | --- | --- | --- | --- | --- | --- | --- |
| CC(=O)OC[C@H]1O[C@@H](Sc2sc(C(=O)c3ccc(C)cc3)c(N)c2-c2nc3ccccc3s2)[C@H](OC(C)=O)[C@@H](OC(C)=O)[C@H]1OC(C)=O | hepatitis A virus | plaque reduction | HM 175 | non-toxic concentration | – | viral titre reduction | 20% |
| C=C[C@]1(C)C[C@@H](OC(=O)CSc2ccc(NC(=O)c3ccco3)cc2)[C@]2(C)[C@H](C)CC[C@]3(CCC(=O)[C@H]32)[C@@H](C)[C@@H]1O | Mycoplasma gallisepticum | sigmoid Emax model, AUC24h/MIC | infected chickens | – | – | Hill slope | 4.22 |
| CCCCC(CSS(=O)(=O)O)NCC(C)C (stereo not shown) | Schistosoma mansoni | – | mice | daily x4, 100 mg/kg, from day 11, perfusion day 25 | – | total worms recovered | 77 worms per mouse and 69 worms per mouse and 57 worms per mouse and 53 worms per mouse |
| FC(F)(F)c1cccc(CNc2nc(NC3CCN(Cc4ccccc4)CC3)c3nc[nH]c3n2)c1 | Cryptococcus neoformans | RNA-seq, measured: CNAG_02001 mRNA | – | 48 µg/mL, 3 h | baseline: untreated wild type | log2 fold change | -1.39 |
| O=C(NCC(O)(Cn1cncn1)c1ccc(F)cc1F)[c-]1cccc1.[Cl-].[Co+3].c1cc[cH-]c1 (racemic) | Brugia pahangi | motility, Worminator | adult female | 50 µM, 2 d | – | inhibition | 0% |
| [2H]C([2H])([2H])C1(C([2H])([2H])[2H])NC(=O)N(c2ccc(F)c(C(C)(F)F)c2)C1=O | Schistosoma mansoni | – | adult stage, infected mice | oral, 25 mg/kg | baseline: untreated infected | worm burden reduction | 100% |
| CC(C)(C)NCC(SS(=O)(=O)O)c1ccccc1 (stereo not shown) | Schistosoma mansoni | – | mice | 400 mg/kg single dose, dosed day 7, perfused 52 | – | male worms recovered | 13 worms per mouse and 26 worms per mouse and 23 worms per mouse and 14 worms per mouse and 33 worms per mouse |
| CCCOC(=O)N1c2cc(CNC)ccc2[C@H](NC(=O)C(=O)Nc2ccc(Cl)c(F)c2)[C@H]1CNC(=N)N | HIV-1 | viral infection | TZM-bl, CRF02_AG 263-8 Env pseudovirus | – | – | IC50 | 347 nM |
| COc1ccccc1NC(=O)OC1C(C)C(OC)C=COC2(C)Oc3c(C)c(O)c4c(c3C2=O)C2=NC3(CCN(CC(C)C)CC3)NC2=C(NC(=O)C(C)=CC=CC(C)C(O)C(C)C(O)C1C)C4=O (stereo not shown) | Mycobacteroides abscessus | intracellular growth, Hill fit | THP-1 derived macrophages, ATCC 19977 | – | – | IC90 | 120 nM |
| C=C(NC(=O)c1csc(-c2nc3c(cc2O)-c2nc(cs2)C(=O)NC(C(C)O)C(=O)NC(=C(C)OC)c2nc(cs2)C(=O)NC2c4nc(cs4)C(=O)NC(COC(=O)c4c5c6c(cccc6n4O)COC(=O)C(OC4CC(C)(O)C(N(C)C)C(C)O4)C2OC5)c2nc-3cs2)n1)C(N)=O (stereo not shown) | Streptococcus pneumoniae | – | -4, immunocompromised mice, lung infection | bid dosing | – | ED50 | 4.94 mg/kg |
| Cc1ccc(C(=O)c2sc(S)c(-c3nc4ccccc4s3)c2N)cc1 | hepatitis A virus | plaque reduction | HM 175 | non-toxic dose NG, mean over three titres | – | viral reduction | 20% |
| CN(C(=O)[C@H](Cc1ccccc1)NC(=O)Cc1c[nH]c2ccc(O)cc12)c1ccc(Cl)cc1 | HIV-1 | viral replication | NL4-3 with subtype C gag/pol | – | – | EC50 | 41 ± 10 nM |
| CC(=O)OC[C@H]1O[C@@H](Sc2sc(C(=O)c3ccc(Br)cc3)c(N)c2-c2nc3ccccc3s2)[C@H](OC(C)=O)[C@@H](OC(C)=O)[C@@H]1OC(C)=O | hepatitis A virus | plaque reduction | HM 175 | non-toxic concentration | – | viral titre reduction | 40% |
| CC1=C(Cn2cc(CN3CCC(F)(F)CC3)nn2)C(=O)c2ccccc2C1=O | Schistosoma mansoni | – | adult worms | 10 µM, 48 h | – | killing | 40.7% |
| C[C@@H]1C(=O)O[C@@H](C)/C=C/C=C\[C@@H](C)[C@@H]2C=C[C@@H]3C[C@@]4(C)O[C@H]4[C@@H](C)[C@H]3[C@@H]2C(=O)C(Cl)(Cl)C1=O | Staphylococcus aureus | – | MSSA clinical isolate | resistant: PEN,CLI,ERY | – | MIC | 0.05 µg/mL (≈ 0.101 µM) |
| CC1(C)[C@H](NC(=O)/C(=N\OC2(C(=O)O)CCCCC2)c2csc(N)n2)C(=O)N1OS(=O)(=O)O | Proteus mirabilis | agar dilution | ATCC 49565, susceptible | – | – | MIC | 0.125 µg/mL (≈ 0.247 µM) |

Excerpt of the above:
| SMILES | organism | test | system | setting | scale | endpoint | result |
| --- | --- | --- | --- | --- | --- | --- | --- |
| [2H]C([2H])([2H])C1(C([2H])([2H])[2H])NC(=O)N(c2ccc(F)c(C(C)(F)F)c2)C1=O | Schistosoma mansoni | – | adult stage, infected mice | oral, 25 mg/kg | baseline: untreated infected | worm burden reduction | 100% |
| C[C@@H]1C(=O)O[C@@H](C)/C=C/C=C\[C@@H](C)[C@@H]2C=C[C@@H]3C[C@@]4(C)O[C@H]4[C@@H](C)[C@H]3[C@@H]2C(=O)C(Cl)(Cl)C1=O | Staphylococcus aureus | – | MSSA clinical isolate | resistant: PEN,CLI,ERY | – | MIC | 0.05 µg/mL (≈ 0.101 µM) |
| CC(=O)OC[C@H]1O[C@@H](Sc2sc(C(=O)c3ccc(C)cc3)c(N)c2-c2nc3ccccc3s2)[C@H](OC(C)=O)[C@@H](OC(C)=O)[C@H]1OC(C)=O | hepatitis A virus | plaque reduction | HM 175 | non-toxic concentration | – | viral titre reduction | 20% |
